Measured values of several laboratories.
Numbered parts are unrelated; each lists some results of a single study.

Study 1
Target: RNA binding protein fox-1 homolog 2, RRM domain, GST-SBP tag (RBFOX2, Homo sapiens, UniProt O43251-10, residues 100-194)
Technique: RNA Bind-n-Seq
Form: RNA
Sample: in vitro
Tested at: 365 nM
Setting: natural RNA segment, single round, ends assumed
Relative to: no-protein control
Direction: higher = stronger binding
All sequences stand within: GGGAGUUCUACAGUCCGACGAUC … UGGAAUUCUCGGGUGCCAA
Target sequence (chain): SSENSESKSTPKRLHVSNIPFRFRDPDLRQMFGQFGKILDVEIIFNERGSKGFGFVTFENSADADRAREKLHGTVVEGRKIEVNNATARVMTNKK
Oligonucleotide | RBNS enrichment (R)
AAUAUGUCACAUCUGAGUUCAAAAAAAUUACUUUGAAUACCUUAAUAUUUGCUGCAUUUUUUUCCGUAUAUAUAACAUGUCUUCUUUCAGAAUGGGAAUAUAUGUGUGCC | 0.554
UGUGAUUGUGAUUCAUCAUCCCUUAAUUAAAUAUCAAAUUAUAUUUGUGUGAAAAUGUGACAAACACACUUAUCUGUCUCUUCUACAAUUGUGGUUUAUUGAAUGUGAUU | 0.692
GAAUUUUUACAAAUAUAAAAAGGAAAAAGUAUAUUAGUGUAAUUUGUUUAGGAAUAGCUACAUACCGAAGGGCUUCUAUACAUGAAUUCUAGGGGCAAAAGCCUUUUGUA | 0.809
UGUUCCUCUCUCAGGAUCUGUAUGUAAGUGAAAAGCAUCACCAUCUACCCAUUGGCUCAAGCAGAAAUCUGGAAGUCAUCUUUGACUCCUUCCUCUCCCUCCUGAUAAAC | 0.817
GGAUCAGCCAAGCUUCGUUCCAUCUUUUCCUAAAGGUCAGAGCUGCAGCCUAGGGGGCACUGCCCUACAGAAAAGGUCUGCCUGAGAGGCCUGAGGAGCCCAGAGCACUU | 0.26
AUGUCUACUUGUAUUGAUCCUUUGGGUCUCCUGGCCCAUUGCUAGGCACUGUUUGUGUGUUAUUAAUGUGUAAUUGGGUGAGAACUGUGUCCCUGAGCAGGAGGGGCUGU | 1.23
AUUCUAGUUUGGGCUCAAUGAAGGAAGCAGGAAGGGGCAGCAACUGAAUGUCACUCUCCACUGCUGCAGCAGUAAAUCUCUCAGUAAAAGAAGACCCUCUCCCUCAGGGG | 0.465
ACCAGCCCCCUCGCCUGCCUGUGUCUCUCCCCAAACCCCUUUAGAUGGGGAGGGAAGAGGAGGAGAGGGGAGGGGACCUGCCCCCUCCUCAGGCAUCUGGGAGGGCCCUG | 0.278
ACUACCUUUUUCUGUAUGCUUUCCAAAGUGUUUCCCUCAAUGUUUGAUUAAAACAUUUGCUCAUAGCCAGCCUGCCUUUCUACGAGAUAGGCAGGACCUCUGAGCGAUGU | 0.437

Study 2
Target: Interferon regulatory factor 5, full length, phosphomimetic (IRF5, Homo sapiens, UniProt Q13568-2, residues 1-514, K96S/S451D/S453D/S456D/S462D)
Technique: protein-binding microarray
Form: double-stranded DNA, one strand shown
Sample: in vitro
Tested at: 250 nM
Setting: 60-bp whole probe
Together with: salmon DNA 0.4 mg/ml
Relative to: random background probes
Direction: higher = stronger binding
All sequences stand within: GCCTAGCAC … GTCTTGATTCGCTTGACGCTGCTG
Oligonucleotide | log fluorescence [z-score]
GACGAACTGAGAATCGAGACGTGCTAG | 0.0896
GACGATATCGGAACTGGAGACGTGCTA | 1.42
TTAGTACTGGGTCTCGGTTAGTGCTAG | 0.045
GATGGACTGGGGTTTCGGGACGTGCTA | 1.18
GACGATATCAGTCTCGAGATGTGCTAG | 1.23
TTAGGAATGGGGACTGGGTTAGTGCTA | -0.288
GACGATTTCGGGACTCGAGACGTGCTA | 1.5
AATTAATAACTCGTAGGATCGTGCTAG | 0.0118
GACGGTTTCGACTTCCGGGACGTGCTA | 5.78
TTAGAACTCAGTATCGATTAGTGCTAG | 6.82
GACGGTCTAGGTTTCGGGACGTGCTAG | 2.53
TTAGGTCTCGGGACTGGGTTAGTGCTA | -0.244

Study 3
Target: Sal-like protein 4, full length isoform A (SALL4, Homo sapiens, UniProt Q9UJQ4, residues 1-1053)
UniProt Q9UJQ4, sequence (whole entry, looked up): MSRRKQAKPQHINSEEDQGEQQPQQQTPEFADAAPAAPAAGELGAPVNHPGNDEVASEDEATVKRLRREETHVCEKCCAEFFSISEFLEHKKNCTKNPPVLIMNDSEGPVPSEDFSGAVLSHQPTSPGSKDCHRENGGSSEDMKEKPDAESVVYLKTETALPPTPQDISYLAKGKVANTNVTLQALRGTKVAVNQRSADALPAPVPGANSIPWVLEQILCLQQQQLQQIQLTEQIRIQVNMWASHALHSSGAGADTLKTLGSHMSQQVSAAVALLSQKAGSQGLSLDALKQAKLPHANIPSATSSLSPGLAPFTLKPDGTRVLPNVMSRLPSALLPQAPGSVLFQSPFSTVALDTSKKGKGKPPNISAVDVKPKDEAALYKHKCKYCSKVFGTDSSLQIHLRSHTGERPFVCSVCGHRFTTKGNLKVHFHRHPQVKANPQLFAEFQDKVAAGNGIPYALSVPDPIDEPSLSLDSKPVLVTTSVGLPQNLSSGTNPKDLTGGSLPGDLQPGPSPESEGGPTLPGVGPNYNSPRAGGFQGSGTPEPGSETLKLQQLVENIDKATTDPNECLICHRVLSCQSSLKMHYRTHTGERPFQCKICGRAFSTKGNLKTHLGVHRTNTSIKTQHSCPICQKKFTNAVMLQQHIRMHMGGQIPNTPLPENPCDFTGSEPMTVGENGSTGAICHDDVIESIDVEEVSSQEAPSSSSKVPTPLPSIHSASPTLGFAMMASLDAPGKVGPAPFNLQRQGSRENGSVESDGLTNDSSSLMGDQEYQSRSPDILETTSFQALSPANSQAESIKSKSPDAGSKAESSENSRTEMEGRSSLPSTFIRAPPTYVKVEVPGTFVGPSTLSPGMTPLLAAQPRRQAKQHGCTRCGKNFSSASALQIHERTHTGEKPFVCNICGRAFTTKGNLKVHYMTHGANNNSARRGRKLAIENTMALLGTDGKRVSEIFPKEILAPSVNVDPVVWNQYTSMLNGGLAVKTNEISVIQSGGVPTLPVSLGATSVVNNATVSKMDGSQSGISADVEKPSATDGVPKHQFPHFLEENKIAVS
Technique: universal PBM
Form: double-stranded DNA, one strand shown
Sample: in vitro
Tested at: 600 nM
Setting: 8-mer, flanks averaged, mean of replicates
Direction: higher = stronger binding
Oligonucleotide | E-score
CTAGCACA | -0.0366
CGGGTCAG | -0.195
TCTCAACA | 0.158
CTCGGCGC | -0.34
ATACCGTG | -0.0738
AGCTTAGA | 0.0416
CCAAGCGA | -0.207
ATCGGGAG | -0.145
CTTATGAA | 0.273
GGTTTATA | 0.261
CCACACCC | -0.173

Mixed results
Substance | target | test | test system | conditions | how to read | quantity | result
PhoQ, residues 284 288 289 292 302 303 SIHMAM | PhoP, residues 12 14 15 18 19 NFCKL (Escherichia coli, UniProt P23836) | Sort-seq, refers to: YFP reporter | E. coli | PhoQ-PhoP variant library, together with: 10 µM Mg2+ | relative to: high Mg2+ state, higher = stronger signaling | fold induction | 11.5

Some of these lines once more (study 2):
Oligonucleotide | log fluorescence [z-score]
GACGAACTGAGAATCGAGACGTGCTAG | 0.0896
TTAGGAATGGGGACTGGGTTAGTGCTA | -0.288
GACGATATCGGAACTGGAGACGTGCTA | 1.42
TTAGTACTGGGTCTCGGTTAGTGCTAG | 0.045
GACGGTTTCGACTTCCGGGACGTGCTA | 5.78
GACGATTTCGGGACTCGAGACGTGCTA | 1.5
